Measured values gathered from unrelated publications.
Protocols differ between the studies behind these lines. “And” joins repeats or separate records; there may be more than shown. ± marks the error that the study gave.

Compound	assay	test system	setting	how to read	measurement	result
C[C@]1(CO)Cc2ncn(-c3ccc(C#N)c(Cl)c3)c2C(=O)O1	aldosterone synthesis, inhibitor, item: cortisol	healthy Japanese adults, urine	40 mg, 0-24 h after first dose, multiple rising dose		urinary excretion	71.7 mmol
COc1cc2c3c(n(CCCN4CCOCC4)c(=O)c2cc1OC)-c1cc2c(cc1C3=O)OCO2		GL261-Luc, mouse orthotopic glioblastoma	intravenous, 25 mg/kg		mean survival time	25 days
C[C@]12CC[C@H](O)C[C@H]1CC[C@@H]1[C@@H]2CC[C@]2(C)[C@@H](c3ccc(=O)oc3)CC[C@]12O		female nude mouse LCC2 xenograft	0.5 mg/kg, day 17, tamoxifen-resistant		tumour volume	86.8 mm3 and 121 mm3 and 134 mm3 and 76.6 mm3 and 128 mm3 and 84.2 mm3 and 109 mm3
Cc1cn(-c2cc(NC(=O)c3ccc(C)c(Nc4nccc(-c5cccnc5)n4)c3)cc(C(F)(F)F)c2)cn1		human patients	dose not given, 6 months from baseline, caregiver distress, within group	direction not given	change in mean NPI score	3
CC1(C)C(=CC=C2CCCC(C=CC3=[N+](CCCCS(=O)(=O)[O-])c4ccc(S(=O)(=O)O)cc4C3(C)C)=C2Oc2ccc(S(=O)(=O)O)cc2)N(CCCCCC(=O)NCCCC[C@H](NC(=O)[C@H](CO)NC(=O)CNC(=O)CNC(=O)CNC(=O)[C@H](Cc2ccccc2)NC(=O)[C@H](CCCNC(=N)N)NC(=O)[C@@H]2CCCN2C(=O)[C@H](CC(N)=O)NC(=O)[C@@H]2CCCN2C(=O)[C@H](CO)NC(=O)[C@@H](N)CCCCN)C(N)=O)c2ccc(S(=O)(=O)O)cc21	photoacoustic endoscopy	CPC;Apc mice, colonic adenoma		reference: ICG	tumour to background ratio improvement	2.2 fold
C[C@H]1O[C@@H](O[C@H]2CC[C@@]3(C)[C@@H](CC[C@]4(C)[C@@H]3C=C[C@]35OC[C@@]6(CCC(C)(C)C[C@H]63)[C@@H](O)C[C@]54C)[C@]2(C)CO)[C@H](O)[C@@H](O[C@@H]2O[C@H](CO)[C@@H](O)[C@H](O)[C@H]2O)[C@H]1O		mouse, chronic-plus-binge ethanol, AAV8-TBG-Null, liver	dose not given, high dose		hepatic triglycerides	0.168 mmol/g protein and 0.0877 mmol/g protein and 0.132 mmol/g protein and 0.0563 mmol/g protein and 0.0855 mmol/g protein
O=C(O)/C=C/C(=O)O.Oc1cccc2[nH]cc(CCNCc3ccccc3)c12		C57BL/6J mice	subcutaneous, 0.1 mg/kg		head twitch count	7 ± 0.9
Cc1c(C(=O)O)ccc2c3n(nc12)[C@@H]1[C@H](C3)N(CC2CC2)[C@@]2(C(=O)Nc3cc(Cl)ccc32)[C@H]1c1cccc(Cl)c1F		mice, orthotopic PDX, MDM2-amplified	weekly, 2 mg/kg, for 12 weeks		median survival	50 days
CC[C@H](C)[C@@H]1NC(=O)[C@@H]2CCCN2C(=O)[C@H](CC(C)C)NC(=O)[C@H](CC(C)C)NC(=O)CNC(=O)[C@@H](NC(=O)[C@@H](NC(=O)[C@H](CC(=O)O)NC(=O)CNC(=O)[C@@H](NC(=O)[C@H](C)NC(=O)CNC(=O)[C@H](CCCCN)NC(=O)[C@H](CC(C)C)NC(=O)[C@H](CC(C)C)NC(=O)[C@H](CCCCN)NC(=O)CNC(=O)[C@@H](NC(=O)[C@@H](N)CC(C)C)C(C)C)C(C)C)C(C)C)CSSC[C@@H](C(=O)O)NC1=O	RNA-seq, item: novel.265 mRNA	mouse traumatic brain injury, frontal cortex and hippocampus	dose not given	reference: TBI plus compound vs TBI	log2 fold change	-3.17
C=CC(=O)Nc1cc(Nc2ncc(Cl)c(Nc3ccccc3C(=O)C(=O)N(C)C)n2)c(OC)cc1N1CCN(C)CC1	RECIST v1.1 best response	human EGFR T790M NSCLC	oral, 200 mg/day, per-protocol set		patients with complete response	0%
CCCCC1(CCCC)CN(c2ccccc2)c2cc(SC)c(OCC(=O)N[C@@H](C(=O)NCC(=O)O)c3ccccc3)cc2S(=O)(=O)C1	item: HDL cholesterol	human, serum	5 mg once daily, day 11		serum HDL-C	46 mg/dL
N.N.[Cl][Pt][Cl]		SAS xenograft, KSN/Slc nude mice	dose not given, day 8, group mean		tumour volume	208 mm3
c1ccc2c(c1)Nc1ccccc1S2		CT26 tumour-bearing mice	intraperitoneal, 100 mg/kg equivalents daily, day 4		tumour volume	492 mm³
COc1cc(C(=O)c2c[nH]c3cc(-c4cccc(OP(=O)([O-])[O-])c4)ccc23)cc(OC)c1OC.[Na+].[Na+]	bioluminescence imaging	mouse orthotopic RENCA-luc kidney tumour	150 mg/kg single dose, 2.5 h	reference: baseline	bioluminescence signal	< 10%
Cc1nc(Nc2ccc(CC(=O)O)cc2)nc(Nc2ccc(F)c(C(F)(F)F)c2)c1C		C57BL/6J mouse, high-fat diet MASH model, serum	intraperitoneal, 0.3 mg/kg daily, 60% fat diet for 12 weeks, dosed final four weeks	reference: untreated	ALT level	decreased
Cc1cccc(C)c1NC(=O)C1CCCCN1 (stereo not drawn)		Sprague-Dawley rat, female	sciatic nerve injection, 60 mM		sensory block duration	74.8 ± 14.4 min
CCCCC/C=C\C/C=C\C/C=C\C/C=C\CCCC(=O)NCCO		mouse, formalin paw test	intraperitoneal, 5 mg/kg, 5 min after formalin, late phase	direction not given	licking score	12
Nc1ncnc2c1ncn2[C@@H]1O[C@@H]2COP(=O)([S-])O[C@@H]3[C@H](O)[C@@H](COP([O-])(=S)O[C@H]2[C@H]1O)O[C@H]3n1cnc2c(N)ncnc21.[Na+].[Na+] (stereo partly drawn)		BALB/c mouse CT26 tumour	iv, 1 mg/kg days 9,12,15		complete response rate	10%
CN1CCN(S(=O)(=O)c2cc([N+](=O)[O-])ccc2N(CCOS(C)(=O)=O)CCOS(C)(=O)=O)CC1		NSG mice, sample CB PDX	intraperitoneal, 25 mg/kg weekly x3	reference: treated over vehicle	EFS ratio (T/C)	> 66.8
[131I-].[Na+]		human, paediatric intermediate-risk differentiated thyroid carcinoma	100-150 mCi		complete response after single dose	76.3%
C=CC(=O)N[C@H]1C=C(C)c2c(-c3cnc4ccccc4c3)c3c(N)ncnc3n2C1		NCI-H2073 parental xenograft (EGFR wild-type), BALB/c nude mice	100 mg/kg once daily, 21 days		tumour growth inhibition	66.7%

Repeated from above:
Compound	assay	test system	setting	how to read	measurement	result
COc1cc(C(=O)c2c[nH]c3cc(-c4cccc(OP(=O)([O-])[O-])c4)ccc23)cc(OC)c1OC.[Na+].[Na+]	bioluminescence imaging	mouse orthotopic RENCA-luc kidney tumour	150 mg/kg single dose, 2.5 h	reference: baseline	bioluminescence signal	< 10%
CCCCC/C=C\C/C=C\C/C=C\C/C=C\CCCC(=O)NCCO		mouse, formalin paw test	intraperitoneal, 5 mg/kg, 5 min after formalin, late phase	direction not given	licking score	12
